Published values gathered from unrelated publications.
Numbered parts are unrelated; each lists some results of a single study. Changes are numbered by the printed parent chain.

Block 1
Target: RING finger protein unkempt homolog, zinc fingers 1-6, GST-SBP tag (UNK, Homo sapiens, UniProt Q9C0B0, residues 30-357)
Technique: RNA Bind-n-Seq
Molecule type: RNA
Matrix: in vitro
Concentration: not given
Setting: RNA with constant flanks, human and mouse sites, ends assumed
Relative to: input RNA pool
Direction: higher = stronger binding
Constant ends, left off below: GGGAGUUCUACAGUCCGACGAUC … CAACAGAGGAUUGAGCAUCA
Construct (chain): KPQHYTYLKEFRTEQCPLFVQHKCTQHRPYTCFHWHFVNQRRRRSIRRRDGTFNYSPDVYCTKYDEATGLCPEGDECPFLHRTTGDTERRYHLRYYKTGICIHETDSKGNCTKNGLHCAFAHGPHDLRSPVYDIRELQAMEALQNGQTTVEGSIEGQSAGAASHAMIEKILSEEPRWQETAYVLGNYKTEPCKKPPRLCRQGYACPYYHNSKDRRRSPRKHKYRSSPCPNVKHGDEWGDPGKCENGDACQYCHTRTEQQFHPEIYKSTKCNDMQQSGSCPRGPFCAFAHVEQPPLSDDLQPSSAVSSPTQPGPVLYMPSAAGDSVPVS
Oligonucleotide	bound/input enrichment [ratio]
CUCACGCAGCAGUUGUGGUCAAUAUUGUGGUAGUCGCUAAUUGUACUGGUUUAAGUGUGCAUUAGUAGUGUCUCCCCAGCUAGAUUGUAAGCUCCUGGAGACAGGGACCACCUCCACCAA	0.372
UCCCCCAGAUCAAGCUCAGUGUGUUCACCUCCAACAAGCUGCCACUGGACCUUAAGGCUCUGAAAAGCACCCUAGGAUUCCCACUGAUUCGGUUUGAAGAUGCUGUGAUCAAUCUGGAUC	0.192
GAGCCGCGACACCGCCGGCCUUAGCGCUGCGCUGCCCGGAACCGCCCCUAAAGAGGAGACCCGGGGCGGGGUCGCGCCUCGGGCCUCCGCUGCGGUCCCCGGCAGGCGGGAGCCGGCGCU	0.44
AGUAUAUCCAGCAGGGAUGUUCAGCCUGUUGCCUAUGAAGAGCCUAAACAUUGGUGUUCAAUAGUCUACUAUGAAUUAAACAAUCGUGUUGGAGAAGCUUUUCAUGCAUCUUCUACUAGU	0.315
AAGGUUAAAUUGCUCACUGGCAAACGAGUUCAGCUGGCAGAAGAUCUCAAGAAAGUUAGAGAAAUUCAAGAAAAGCUUGAUGCUUUCAUUGAAGCUCUUCACCAGGAGAAGUAGACUGUG	0.291
GCCUCUGCCACGCUGAGUGCGUCGCGGACUGGGCUUUCCGAUAUGCUCGCGUUAGAGAGCGAUUUCUUCAAUUCUCCUCCGAAAAAAACUGUUCGGUUUGGCGGAACUGUGACAGAAGUC	0.075
CUGAGCCCAGGGUCCCAAAUCAACGUGCUGGAAGACCCAGGCUACCUAGAUCUCACACAAAUAGAAGCAAGCAAACCUCACAGUGCCCAGUUUUUGCUACCAGUUGAGAUGUUUGGUCCU	0.217
AAAGAAUGUGCUAAUUUCAUCAAGGUACUUAAGGCAUAUAAUCAGACUCACUUGUACGCCUGUGGAACGGGGGCUUUUCAUCCAAUUUGCACCUACAUUGAAAUUGGACAUCAUCCUGAG	0.221

Block 2
Target: Histone acetyltransferase KAT6A, both winged helices, GST fusion (KAT6A, Homo sapiens, UniProt Q92794, residues 1-181)
Technique: protein binding microarray
Molecule type: double-stranded DNA, one strand shown
Matrix: in vitro
Concentration: not given
Setting: 8-mer, flanks averaged, mean of 2 arrays, mostly near background
Relative to: not given
Direction: higher = stronger binding
Residues (chain): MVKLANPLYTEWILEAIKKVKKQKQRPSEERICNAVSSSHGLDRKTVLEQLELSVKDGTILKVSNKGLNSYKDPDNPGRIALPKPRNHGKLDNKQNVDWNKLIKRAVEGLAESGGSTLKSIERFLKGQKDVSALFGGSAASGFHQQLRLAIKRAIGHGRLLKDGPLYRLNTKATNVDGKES
Oligonucleotide	E-score
CCACAGAA	-0.157
AATGTGGA	-0.149
ACGACGAT	0.0146
CGCTAAGC	0.299
TGTTAGAA	-0.169
AACGTTTC	-0.0592
CCGATCCG	0.174
CCGATTCG	0.128

Block 3
Target: Interferon regulatory factor 5, full length, phosphomimetic (IRF5, Homo sapiens, UniProt Q13568-2, residues 1-514, K96S/S451D/S453D/S456D/S462D)
Technique: protein-binding microarray
Molecule type: double-stranded DNA, one strand shown
Matrix: in vitro
Concentration: 250 nM
Setting: 60-bp whole probe
Together with: salmon DNA 0.4 mg/ml
Relative to: random background probes
Direction: higher = stronger binding
Constant ends, left off below: GCCTAGCAC … GTGCTAGGTCTTGATTCGCTTGACGCTGCTG
Oligonucleotide	log fluorescence
GACCGTATCCTTCTCCTGAC	0.239 z-score
TTAGAACTGCGACTGGATTA	-0.0507 z-score
GACGATTTCAGTTTCGAGAA	7.06 z-score
GATGGCAGTGGAAATTTTAC	-0.175 z-score
AAGACTTTGGTTTGTACACC	-0.266 z-score
TTTTATTTATAAATTATCTT	1.67 z-score
TTAGGTTTCGGTCTCGGTAA	10.5 z-score
TCATCTTCCCTTTTAAGACT	0.773 z-score

Mixed results
Starting sequence: PafA, mature enzyme, eGFP fusion (Elizabethkingia meningoseptica, UniProt Q9KJX5); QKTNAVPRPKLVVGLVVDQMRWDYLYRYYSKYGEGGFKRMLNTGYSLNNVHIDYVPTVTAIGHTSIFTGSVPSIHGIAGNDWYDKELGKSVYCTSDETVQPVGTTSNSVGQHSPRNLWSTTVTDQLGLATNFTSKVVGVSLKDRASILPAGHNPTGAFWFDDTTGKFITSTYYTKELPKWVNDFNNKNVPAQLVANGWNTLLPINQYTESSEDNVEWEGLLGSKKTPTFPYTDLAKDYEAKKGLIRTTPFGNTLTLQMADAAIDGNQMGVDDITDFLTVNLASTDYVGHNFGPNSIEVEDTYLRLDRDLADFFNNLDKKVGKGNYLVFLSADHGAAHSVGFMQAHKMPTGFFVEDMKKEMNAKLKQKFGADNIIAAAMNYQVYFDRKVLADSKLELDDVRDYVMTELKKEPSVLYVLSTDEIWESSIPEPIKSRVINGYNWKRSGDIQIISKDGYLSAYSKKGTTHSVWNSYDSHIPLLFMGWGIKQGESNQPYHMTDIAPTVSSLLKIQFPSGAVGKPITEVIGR
Change	target	test	test system	conditions	how to read	endpoint	result
V468A	inorganic phosphate, free oxyanion	microfluidic competitive inhibition	in vitro, cell-free expressed	not given, derived from inhibition constants, unchanged parent 615000 nM	lower = stronger binding	phosphate dissociation constant	568 µM

Some of these lines once more (block 2):
Oligonucleotide	E-score
ACGACGAT	0.0146
CGCTAAGC	0.299
TGTTAGAA	-0.169
